Assay results gathered from unrelated publications.
Each line is one published result; not all experiments were run side by side. Several values in a cell are separate wells, animals, samples, runs or records. ± marks the error that the study gave.
Chain of UniProt P08183 (whole entry, looked up): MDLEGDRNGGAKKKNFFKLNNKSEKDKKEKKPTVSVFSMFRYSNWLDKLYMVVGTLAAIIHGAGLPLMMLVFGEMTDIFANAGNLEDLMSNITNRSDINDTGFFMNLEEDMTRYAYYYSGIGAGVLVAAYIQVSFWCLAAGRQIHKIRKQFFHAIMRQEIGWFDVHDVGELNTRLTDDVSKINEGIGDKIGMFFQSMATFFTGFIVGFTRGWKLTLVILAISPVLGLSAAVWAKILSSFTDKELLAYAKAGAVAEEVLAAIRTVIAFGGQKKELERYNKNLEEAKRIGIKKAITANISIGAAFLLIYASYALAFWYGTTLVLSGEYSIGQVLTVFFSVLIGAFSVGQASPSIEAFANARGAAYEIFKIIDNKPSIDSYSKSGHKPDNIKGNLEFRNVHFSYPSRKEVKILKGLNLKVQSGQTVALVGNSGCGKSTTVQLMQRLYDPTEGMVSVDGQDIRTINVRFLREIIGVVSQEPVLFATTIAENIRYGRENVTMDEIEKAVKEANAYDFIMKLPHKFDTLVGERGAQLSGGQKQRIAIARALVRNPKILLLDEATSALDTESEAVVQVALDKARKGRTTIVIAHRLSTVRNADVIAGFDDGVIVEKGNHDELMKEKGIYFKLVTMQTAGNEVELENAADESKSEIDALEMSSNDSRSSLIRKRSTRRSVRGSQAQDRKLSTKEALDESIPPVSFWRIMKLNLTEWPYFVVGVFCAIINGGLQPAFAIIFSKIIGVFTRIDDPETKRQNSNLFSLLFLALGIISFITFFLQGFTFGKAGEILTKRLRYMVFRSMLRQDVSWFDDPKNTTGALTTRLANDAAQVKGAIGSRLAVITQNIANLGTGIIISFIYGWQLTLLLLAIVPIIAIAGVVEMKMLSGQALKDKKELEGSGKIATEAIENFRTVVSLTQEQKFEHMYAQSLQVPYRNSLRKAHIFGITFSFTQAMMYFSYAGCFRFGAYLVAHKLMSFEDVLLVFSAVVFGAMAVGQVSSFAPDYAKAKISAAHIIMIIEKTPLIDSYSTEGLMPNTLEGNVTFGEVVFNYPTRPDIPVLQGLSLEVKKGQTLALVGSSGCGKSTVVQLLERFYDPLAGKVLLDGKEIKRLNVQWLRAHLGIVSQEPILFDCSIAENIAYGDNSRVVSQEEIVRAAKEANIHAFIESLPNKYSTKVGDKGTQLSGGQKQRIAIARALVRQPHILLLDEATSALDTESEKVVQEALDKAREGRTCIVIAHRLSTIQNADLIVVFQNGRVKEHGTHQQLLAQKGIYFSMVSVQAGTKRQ

With COc1cccc(OC)c1-c1cc(C(=O)NC2(C(=O)O)C3CC4CC(C3)CC2C4)nn1-c1ccc(C(=O)N(C)CCCN(C)CCCN(C)C(=O)CN2CCN(CC(=O)[O-])CCN(CC(=O)[O-])CCN(CC(=O)[O-])CC2)cc1C(C)C.[177Lu+3] (centres unmarked) the tissue uptake was 0.34 %ID/g (mouse, HT-29 xenograft, liver; 72 h post injection).
With c1ccc(-c2nc(N3CCC(c4ccccn4)C3)c3ccccc3n2)nc1 (centres unmarked) the AUC(0-last) was 6790 ng·h/mL (female Balb/c mice, plasma; intravenous, 2 mg/kg, mean, together with: ABT 2 h prior).
CNC(=O)c1cc(Oc2ccc(NC(=O)Nc3ccc(Cl)c(C(F)(F)F)c3)c(F)c2)ccn1 gave an AUC(0-last) of 19300 ± 2150 ng·h/mL (male DBA/1lacJ Oatp1b2 knockout mice, plasma; oral, 10 mg/kg single dose).
Under “treatment-related adverse events”, FC(F)(F)c1ccc(CNc2ccc(Cc3c[nH]c4ncc(Cl)cc34)cn2)cn1 is recorded as 0% (item: dry skin; human, advanced solid tumours, non-TGCT cohort; oral, 1000 mg/day, grade 3 or higher).
Cc1cc(C(=O)NC(C)(C)COc2cccc3c2C(N)=NS(=O)(=O)N3)cc(C)n1 — result for “plasma peak area”: 6.94e+06 a.u. (LC-MS metabolite profiling; Sprague-Dawley rat, both sexes, plasma; oral, 100 mg/kg of parent drug, 0.25 (unit not given); higher = more metabolite).
The unbound concentration of C[C@H]1CNC(=O)c2cnn3ccc(nc23)N[C@H](C)c2cc(F)ccc2O1 is reported as 81 ± 24 nM (Balb/c nude mice, female, plasma; oral, 75 mg/kg twice daily, 1 h, steady state).
C[C@@H](N)C1CCN(S(=O)(=O)c2cccc3cnccc23)CC1: “participants with hypotension” 0% (healthy volunteers; 75 mg, fasted).
CCN1/C(=C/C(C)=O)Sc2ccc(F)cc21 has a PR interval of 90 ± 5 ms (cynomolgus monkey; oral, 10 mg/kg, 24 h post-dose).
For CC(C)c1nc(N(C)S(C)(=O)=O)nc(-c2ccc(F)cc2)c1/C=C/[C@@H](O)C[C@@H](O)CC(=O)O, the Tlast was 72 h (human, plasma; oral, 10 mg, median, range, together with: vepdegestrant 200 mg).
Cc1nc2ccc(OCc3ccc(C(F)(F)F)cc3)cc2[nH]1 gave a C0 of 6870 ± 722 ng/mL (Balb/c mice, male, plasma; intravenous, 1 mg/kg).
Under “QTcV interval change”, Cc1c(-c2ccc(N3CCc4cccc(C(=O)Nc5nc6ccccc6s5)c4C3)nc2C(=O)O)cnn1CC12CC3(C)CC(C)(C1)CC(OCCNCC[C@H](O)CO)(C3)C2 is recorded as 16 ms (beagle dog, male, anaesthetised; intravenous infusion, 0.3 mg/kg/min, 105 min; reference: vehicle).
CN1C(=O)[C@@H](NC(=O)c2nnc(Cc3ccccc3)[nH]2)COc2cccnc21: “participants with any AE of special interest” 0% (phase I multiple ascending dose; human, male and female; oral, 100 mg, 14 days).
Nc1ncnc2c1ncn2[C@H]1C[C@@H]2OP(=O)(O)OC[C@H]3O[C@@H](n4cnc5c(N)ncnc54)C[C@@H]3OP(=O)(O)OC[C@H]2O1 gave a globulin of 21.9 ± 1.08 g/L (non-tumor-bearing mice, serum; intravenous, 1 mg/kg, toxicity study).
For CNCCOC12CC3(C)CC(C)(CC(Cn4ncc(-c5ccc(N6CCc7cccc(C(=O)Nc8nc9ccccc9s8)c7C6)nc5C(=O)O)c4C)(C3)C1)C2, “QTcV interval change” read 13 ms (beagle dog, male, anaesthetised; intravenous bolus, 0.03 mg/kg, 75 min; reference: baseline).
Cn1cncc1[C@@](N)(c1ccc(Cl)cc1)c1ccc2c(c1)c(-c1cccc(Cl)c1)cc(=O)n2C gave an AUC0-inf ratio of 1.4 fold (human, plasma; 300 mg/m^2/dose, second cohort, mean; reference: AUC0-inf at 200 mg/m^2/dose).
COc1ccc([C@@H](O)c2cc(-c3ncnc4cc(N5CCOCC5)ccc34)c(F)cc2Cl)nn1 has an investigations TEAE of 0% (locally advanced rectal cancer patients; 50 mg, together with: capecitabine and radiotherapy).
For CC(C)[C@@H](CS(=O)(=O)C(C)C)N1C(=O)[C@@](C)(CC(=O)O)C[C@H](c2cccc(Cl)c2)[C@H]1c1ccc(Cl)cc1, the AUC(0-inf) was 7810 ± 661 ng·h/mL (FVB mice Abcb1a/b Abcg2 knockout, plasma; oral, 20 mg/kg).
For Cn1cc([C@H]2C[C@H]3CSC(N)=N[C@@]3(c3ccc(F)cc3F)CO2)cn1, the plasma concentration was 884 nM (male 129/SVE mouse, plasma; subcutaneous, 10 mg/kg, 3 h).
C=CCn1c(=O)c2cnc(Nc3ccc(N4CCN(C)CC4)cc3)nc2n1-c1cccc(C(C)(C)O)n1 gave an AUC(0-10) of 4.13 µM·h (human; oral, 200 mg once daily, monotherapy lead-in, -5 days; geometric mean).
O=C(O)c1c(O)c(-c2ccccc2)nc2ccccc12 gave a pKa (basic) of < 2.
C[C@@H]1CN(c2c(F)c(N)c3c(=O)c(C(=O)O)cn(C4CC4)c3c2F)C[C@H](C)N1 — result for “mean blood pressure”: 34 ± 0.2 mmHg (male Hartley guinea pigs, anaesthetized; intravenous, 3 mg/kg group, baseline before infusion).
Under “papular rash incidence”, Cc1cc(Nc2cc3ncccc3c(N[C@@H]3C[C@H]4CC[C@@H](C3)N4CCC#N)n2)n[nH]1 is recorded as 0% (healthy human subjects; oral, 10 mg, 14 days, multiple ascending dose).
Cc1nc2cccc(OCC(C)(C)C(=O)NC(C)C)c2c(N)c1C(=O)O: “micronucleated PCE per 14000 PCE” 7 (male Swiss albino CD-1 mouse, bone marrow; oral, 1000 mg/kg, 48 h).
Under “mean blood pressure”, CC/C(=C(\c1ccccc1)c1ccc(OCCN(C)C)cc1)c1ccccc1 is recorded as 28 ± 0.4 mmHg (male Hartley guinea pigs, anaesthetized; intravenous, 30 mg/kg over 10 min, after infusion).
For CC(C)n1c(Nc2cccnc2)nc2cnc(Nc3ccc(N4CCN(C)CC4)cc3)nc21, “subjects with adverse event” read 0% (item: white blood cell count elevated; healthy male subjects; oral, 150 mg, study, together with: rifampin).
With CC(C)Oc1ccc2cc(C(=N)N)ccc2c1 the pKa was 11.3.
The radioactivity uptake of O=C(O)CCCOc1ccc([18F])cc1-c1cc(-c2ccccc2C(F)(F)F)n(-c2ccccc2)n1 is reported as 1.15 ± 0.09 SUV (gamma counting; male ddY mice, muscle; intravenous, 2.1 MBq, 30 min).
CSc1nc(O)n2nccc2n1 gave a maximum haemolysis of 1.8% (sheep erythrocytes; 1 h, pH 7.5).
O=C(N/N=C/c1ccccc1O)c1ccncc1 gave a stability of 99.4% (ADS buffer; 57 µM, 12 h, 5 °C, post-preparative, autosampler).
Under “mean blood pressure”, O=C(CCCN1CCC(O)(c2ccc(Cl)cc2)CC1)c1ccc(F)cc1 is recorded as 37 ± 0.2 mmHg (male Hartley guinea pigs, anaesthetized; intravenous, 0.1 mg/kg group, baseline before infusion).
CCC(CC)C(=O)Oc1cccc(C(O)CCN)c1.O=CO (centres unmarked) — result for “ERG a-wave amplitude”: 72 µV and 30 µV and 34 µV and 76 µV and 48 µV and 31 µV (scotopic ERG; BALB/cJ mice; intraperitoneal, 10 mg/kg, 4 h dark adaptation, together with: 10,000 lx photobleach, 10 min).
CNC(=O)c1ccc(-c2cnc3ncc(Cc4ccc5ncccc5c4)n3n2)cc1F — result for “alkaline phosphatase increase incidence (all grades)”: 0% (CTCAE v4.0, any causality; human hepatocellular carcinoma patients; oral, 600 mg twice daily, expansion cohort at RP2D).
Under “subjects with any adverse event”, CC(C)(C(=O)N1CCOc2c(C#N)cncc2C1)C(F)F is recorded as 100% (human; oral, 40 mg).
With COc1ccc2c(c1)CN(C(=O)CCN1CCC(Cc3ccccc3)CC1)CC[S@@+]2[O-] the QT interval was 222 ± 13 ms (telemetry; conscious male beagle dogs; intravenous, 2 mg/kg, 2 h).
COc1cc(C(=O)N2CCC3(CC2)CC(=O)c2c(cnn2C(C)C)C3)cc(-c2ccc(C(=O)O)cc2)n1 — result for “placebo-adjusted change from baseline”: -13.7% (item: HDL cholesterol; human, fasting serum; 30 mg every 12 h, day 13, adjusted geometric mean; reference: baseline and placebo).
With C[C@@H]1COCCN1c1cc(C2([S@](C)(=N)=O)CC2)nc(-c2cc[nH]c3nccc2-3)n1 the Vomiting incidence was 0% (Japanese advanced solid tumour patients; oral, 160 mg twice daily, CTCAE grade ≥3).
Cc1ncsc1-c1ccc(CNC(=O)[C@@H]2C[C@@H](O)CN2C(=O)[C@@H](NC(=O)CCCCCCCCCCNC(=O)O[C@H]2C[C@@H](C)C=C3C=C[C@H](C)[C@H](CC[C@@H]4C[C@@H](O)CC(=O)O4)[C@H]32)C(C)(C)C)cc1 — result for “elimination rate constant”: 3.61e-05 ± 2.78e-06 s⁻¹ (C57BL/6 mice, plasma; oral, 60 mg/kg).
O=C(Nc1nc2cccc(-c3ccc(CN4CCS(=O)(=O)CC4)cc3)n2n1)C1CC1 — result for “treatment-emergent adverse events”: 5% (item: musculoskeletal disorders; human rheumatoid arthritis patients; oral, 300 mg once daily, 4 weeks, regardless of relatedness).
COc1nc(-c2cc(C)c(N[C@@H](C)c3cc(F)cc(F)c3)nn2)ccc1-n1cnc(C)c1 has an AUC(0-t) of 3130 ng·h/mL (cynomolgus monkey, male, plasma; intravenous, 1 mg/kg).
With CC[C@H]1[C@@H](O)[C@@H]2[C@H](CC[C@]3(C)[C@@H]([C@H](C)CCNC(=O)NS(=O)(=O)c4ccc(C(C)(C)C)cc4)CC[C@@H]23)[C@@]2(C)CC[C@@H](O)C[C@@H]12 the Vd/F was 228 L (ATP-dependent translocase ABCB1 (ABCB1, Homo sapiens, UniProt P08183); human, plasma; dose not given, mean, alone).
For O=C1Cc2cc(CCN3CCN(c4nsc5ccccc45)CC3)c(Cl)cc2N1, “mean blood pressure” read 35 ± 0.4 mmHg (male Hartley guinea pigs, anaesthetized; intravenous, 0.3 mg/kg group, baseline before infusion).
Cc1c(Br)cc(NC(=O)CS(=O)(=O)O)cc1Br has an unbound Cmax of < 16 nM (CD-1 mice, whole blood; oral, 10 mg/kg).
Cc1cc(-c2nccc3c2ccn3CC(=O)Nc2ccc(-c3cnccn3)cn2)ccn1 — result for “subjects with suture rupture”: 0% (human; 5 mg once daily, multiple ascending dose).
CCCOc1ccc([C@H]2CNC(=O)N2c2ccc3[nH]cnc3c2)cc1 gave an effective half-life of 139 min (human volunteers fasted, plasma; oral capsule, 200 mg single dose, crossover, geometric mean).
CCOc1ccc2nc(NC(=O)c3ccc4ncsc4c3)sc2c1 gave a maximum haemolysis of 26.9% (sheep erythrocytes; 1 h, pH 7.5).
Oc1ccc(/C=C/c2cc(O)cc(O)c2)cc1 has a calcium of 10.3 mg/dL and 10.2 mg/dL and 10.4 mg/dL (rat, azoxymethane-injected, blood at sacrifice; 100 mg/kg).
Nc1ncnc2c1ncn2[C@@H]1O[C@H](CO)C[C@H]1O gave a cytotoxicity of 18% and 23.4% (LDH release; human ESC-derived lung organoids; concentration not given, 3 days).

A few entries again:
CCCOc1ccc([C@H]2CNC(=O)N2c2ccc3[nH]cnc3c2)cc1 gave an effective half-life of 139 min (human volunteers fasted, plasma; oral capsule, 200 mg single dose, crossover, geometric mean).
CCOc1ccc2nc(NC(=O)c3ccc4ncsc4c3)sc2c1 gave a maximum haemolysis of 26.9% (sheep erythrocytes; 1 h, pH 7.5).
Oc1ccc(/C=C/c2cc(O)cc(O)c2)cc1 has a calcium of 10.3 mg/dL and 10.2 mg/dL and 10.4 mg/dL (rat, azoxymethane-injected, blood at sacrifice; 100 mg/kg).
